Published values collected from several papers.
Each numbered part is a random draw from the data of one study; scales do not carry over between parts. Values joined by “and” are separate records of one study, mostly repeats; a detail may differ.

Set 1 — method: KINOMEscan; notes: unit not given; relative to: DMSO
Compound: c1ccc2c(-c3nn4c(-c5ccncc5)nnc4s3)c[nH]c2c1
Target: 1-phosphatidylinositol 3-phosphate 5-kinase (PIKFYVE, Homo sapiens, UniProt Q9Y2I7)
Sequence of UniProt Q9Y2I7 (whole entry, looked up): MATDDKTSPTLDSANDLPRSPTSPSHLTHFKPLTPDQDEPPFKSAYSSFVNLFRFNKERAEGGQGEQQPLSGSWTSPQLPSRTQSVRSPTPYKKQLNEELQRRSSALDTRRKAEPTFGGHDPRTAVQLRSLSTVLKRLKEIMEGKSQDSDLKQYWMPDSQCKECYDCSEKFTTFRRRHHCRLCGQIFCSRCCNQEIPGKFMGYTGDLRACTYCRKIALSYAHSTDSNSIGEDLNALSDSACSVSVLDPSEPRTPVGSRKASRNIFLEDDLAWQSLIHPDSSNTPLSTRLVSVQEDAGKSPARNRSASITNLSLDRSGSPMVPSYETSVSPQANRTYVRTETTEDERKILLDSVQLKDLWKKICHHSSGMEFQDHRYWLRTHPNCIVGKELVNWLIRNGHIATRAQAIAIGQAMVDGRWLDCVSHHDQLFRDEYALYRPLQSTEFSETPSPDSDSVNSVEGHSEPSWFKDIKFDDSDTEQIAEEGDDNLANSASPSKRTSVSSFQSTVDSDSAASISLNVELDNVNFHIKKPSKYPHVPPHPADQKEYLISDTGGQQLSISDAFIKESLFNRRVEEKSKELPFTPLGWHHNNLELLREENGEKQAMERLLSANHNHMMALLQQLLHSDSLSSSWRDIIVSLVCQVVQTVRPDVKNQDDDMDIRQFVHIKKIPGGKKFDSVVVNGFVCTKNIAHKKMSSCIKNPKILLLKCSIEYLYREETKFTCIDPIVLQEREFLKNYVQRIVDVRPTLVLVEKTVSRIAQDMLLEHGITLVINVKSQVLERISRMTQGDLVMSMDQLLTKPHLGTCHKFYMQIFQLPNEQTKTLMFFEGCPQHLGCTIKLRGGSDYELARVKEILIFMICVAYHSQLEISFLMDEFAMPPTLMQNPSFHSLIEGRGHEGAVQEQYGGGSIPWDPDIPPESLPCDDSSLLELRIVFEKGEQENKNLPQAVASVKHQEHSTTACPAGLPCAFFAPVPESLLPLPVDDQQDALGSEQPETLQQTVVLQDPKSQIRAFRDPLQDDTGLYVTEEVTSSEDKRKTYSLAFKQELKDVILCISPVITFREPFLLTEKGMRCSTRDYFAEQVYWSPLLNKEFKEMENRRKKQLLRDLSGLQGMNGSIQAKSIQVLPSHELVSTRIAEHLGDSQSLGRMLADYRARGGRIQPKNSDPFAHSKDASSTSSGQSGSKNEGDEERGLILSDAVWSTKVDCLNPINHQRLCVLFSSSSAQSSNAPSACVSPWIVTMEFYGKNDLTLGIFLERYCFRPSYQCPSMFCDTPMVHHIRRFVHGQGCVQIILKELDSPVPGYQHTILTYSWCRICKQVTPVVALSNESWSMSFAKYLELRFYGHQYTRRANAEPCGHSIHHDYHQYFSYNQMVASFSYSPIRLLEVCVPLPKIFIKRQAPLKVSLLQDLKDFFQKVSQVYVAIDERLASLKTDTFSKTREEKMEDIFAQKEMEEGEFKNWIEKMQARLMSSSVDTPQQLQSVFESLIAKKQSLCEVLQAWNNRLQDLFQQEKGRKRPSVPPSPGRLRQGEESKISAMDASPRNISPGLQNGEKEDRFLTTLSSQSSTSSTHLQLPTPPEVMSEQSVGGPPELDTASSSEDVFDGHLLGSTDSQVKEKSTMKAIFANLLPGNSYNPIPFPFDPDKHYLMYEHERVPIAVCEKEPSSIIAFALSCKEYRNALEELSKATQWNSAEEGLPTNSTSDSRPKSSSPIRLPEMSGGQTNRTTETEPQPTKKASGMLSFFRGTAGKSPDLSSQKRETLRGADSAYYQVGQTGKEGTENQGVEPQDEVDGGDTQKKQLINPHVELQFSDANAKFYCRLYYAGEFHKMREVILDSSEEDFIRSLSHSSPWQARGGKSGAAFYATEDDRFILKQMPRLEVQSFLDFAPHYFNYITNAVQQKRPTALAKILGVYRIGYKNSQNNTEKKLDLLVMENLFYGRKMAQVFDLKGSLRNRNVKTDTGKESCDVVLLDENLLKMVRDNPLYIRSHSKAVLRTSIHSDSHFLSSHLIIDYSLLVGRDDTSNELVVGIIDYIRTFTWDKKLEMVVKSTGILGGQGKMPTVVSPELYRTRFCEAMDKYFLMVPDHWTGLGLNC
| concentration | remaining binding |
| --- | --- |
| 0.168 nM | 0.317 and 0.299 |
| 41.2 nM | 0.00189 and 0.00197 |
| 0.508 nM | 0.0732 and 0.0743 |
| 123 nM | 0.0033 and 0.00237 |
| 4.57 nM | 0.00522 and 0.00521 |
| 367 nM | 0.00227 and 0.00161 |
| 4.53 nM | 0.00439 and 0.00484 |
| 370 nM | 0.00191 and 0.00239 |

Set 2 — host: cancer patients; medium: plasma; route: oral; time: cycle 0 day -3; notes: single dose
Compound: COc1ccc(-c2c(Nc3ccccn3)[nH]c3c(C4=CCCCC4)c(-c4ccccc4)nn3c2=O)cc1
| dose | AUC(0-72 h), geometric mean |
| --- | --- |
| 50 mg | 11100 ng·h/mL |
| 200 mg | 54600 ng·h/mL |
| 100 mg | 37100 ng·h/mL |
| 400 mg | 31900 ng·h/mL |
| 150 mg | 42900 ng·h/mL |

Other studies, line by line
| SMILES | target or system | test | test system | setting | scale | quantity | value |
| --- | --- | --- | --- | --- | --- | --- | --- |
| c1ccc(Oc2ccc(Nc3c4c(nc5ccccc35)CCC4)cc2)cc1 | Leishmania donovani | parasite growth, high-content imaging | MHOM/IN/80/DD8, amastigotes in THP-1 cells | 80 µM | – | normalised inhibition | 100% |
| COC(=O)N1CCN(C(=O)Cc2ccc(Cl)c(Cl)c2)C(CN2CCCC2)C1 (stereo not shown) | mouse MPNST tumor cells | high-content nuclear imaging, refers to: cell number | – | 10 µM, 12 h, mean of 2 replicates | relative to: plate mean, higher = more cells | nuclei count | 0.915 z-score |
| CCOc1ccc(Nc2c3c(nc4ccccc24)CCC3)cc1 | Leishmania donovani | parasite growth, high-content imaging | MHOM/IN/80/DD8, amastigotes in THP-1 cells | 80 µM | – | normalised inhibition | 100% and 101% and 102% |

Excerpt of the above (set 2):
| dose | AUC(0-72 h), geometric mean |
| --- | --- |
| 200 mg | 54600 ng·h/mL |
